Experimental data from different studies.
Compare with care: the assays were run in different laboratories.
Target: Histone deacetylase 1 (HDAC1, Homo sapiens, UniProt Q13547)
UniProt Q13547, sequence (whole entry, looked up): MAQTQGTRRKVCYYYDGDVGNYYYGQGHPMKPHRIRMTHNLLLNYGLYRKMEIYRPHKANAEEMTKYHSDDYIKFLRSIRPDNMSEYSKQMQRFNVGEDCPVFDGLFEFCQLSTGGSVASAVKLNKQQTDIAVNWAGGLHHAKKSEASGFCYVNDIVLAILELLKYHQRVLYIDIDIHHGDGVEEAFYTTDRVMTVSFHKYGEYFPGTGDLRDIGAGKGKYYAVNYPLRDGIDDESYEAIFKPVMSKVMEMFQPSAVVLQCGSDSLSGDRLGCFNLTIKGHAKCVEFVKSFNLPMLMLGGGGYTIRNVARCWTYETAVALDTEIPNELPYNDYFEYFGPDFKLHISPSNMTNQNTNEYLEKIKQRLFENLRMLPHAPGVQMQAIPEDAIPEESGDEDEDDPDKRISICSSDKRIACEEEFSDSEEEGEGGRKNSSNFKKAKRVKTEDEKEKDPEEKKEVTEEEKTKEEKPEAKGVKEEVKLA

SMILES	effect on	mode	method	medium	time	quantity	value
C=CC[C@@H]1NC(=O)CCSCc2nc3ccccc3nc2CSC/C=C/CNC(=O)[C@H](CCCCCC(=O)N(O)CCCCCC)NC1=O	enzyme activity	inhibitor	fluorescence	–	–	Ki	230 nM
CC(C)c1ccc(OS(=O)(=O)Oc2cncc(C(=O)NO)c2)cc1	enzyme activity	inhibitor	fluorescence	–	–	Ki	438 nM
COc1ccc(C(=O)NO)cc1NC(=O)c1ccc(-c2ccccc2)cc1	–	inhibitor	competition pulldown	SW620 and MV4-11 lysate	1 h	Kd	> 30200 nM
CCCCCCC(=O)Nc1ccc(Nc2ncc(F)c(-c3cc(F)c4nc(C)n(C(C)C)c4c3)n2)cc1	enzyme activity	inhibitor	–	–	–	IC50	> 1000 nM
C[S@@](=N)(=O)c1ccc(C(=O)Nc2cc(-c3ccc(F)cc3)ccc2N)cc1	target engagement in cells	–	BRET	–	–	IC50	100 nM
O=C(CCc1ccc(CNC(C(=O)OC2CCCC2)C2CCCCC2)cn1)NO (centres unmarked)	enzyme activity	inhibitor	–	–	–	IC50	676 nM
Cc1nc2c(F)cc(-c3nc(Nc4ccc(NC(=O)CCCCCCCC(=O)NO)cc4)ncc3F)cc2n1C(C)C	enzyme activity	inhibitor	–	–	–	IC50	30 nM
Cc1cc(C(C)(C)C)ccc1OS(=O)(=O)Oc1cccc(/C=C/C(=O)NO)c1	enzyme activity	inhibitor	fluorescence	–	–	Ki	677 nM
Cc1nc2c(F)cc(-c3nc(Nc4ccc(CC(=O)NCCCCCCC(=O)NO)cc4)ncc3F)cc2n1C(C)C	enzyme activity	inhibitor	–	–	–	IC50	12 nM
O=C(NO)c1cnc(NC2(c3cccc(F)c3)CCCCC2)nc1	cell-free assay	–	–	–	–	Kd	> 30200 nM
CC[C@H](C)[C@@H]1NC(=O)[C@H](Cc2ccccc2C(F)(F)F)NC(=O)CCSCc2cccc(n2)CSCCCNC(=O)[C@H](CCCCCC(=O)NO)NC1=O	enzyme activity	inhibitor	fluorescence	–	–	Ki	2 nM

For quick reference, copied from above:
SMILES	effect on	mode	method	medium	time	quantity	value
Cc1nc2c(F)cc(-c3nc(Nc4ccc(CC(=O)NCCCCCCC(=O)NO)cc4)ncc3F)cc2n1C(C)C	enzyme activity	inhibitor	–	–	–	IC50	12 nM
